Measurements pooled from the literature.
Every numbered part comes from another study and shows a few of its results, in no order.

Set 1
Target: Interferon regulatory factor 5, full length, phosphomimetic (IRF5, Homo sapiens, UniProt Q13568-2, residues 1-514, S451D/S453D/S456D/S462D)
Technique: protein-binding microarray
Form: double-stranded DNA, one strand shown
Matrix: in vitro
Concentration: 940 nM top
Notes: 60-bp whole probe
Added: salmon DNA 0.4 mg/ml
Baseline: random background probes
Reading: higher = stronger binding
Under “fitted relative affinity”, `GCCTAGCACTTAGGTTTCGGGTCTCGGTTAGTGCTAGTCTTGATTCGCTTGACGCTGCTG` is recorded as 10.1 z-score.
`GCCTAGCACTTAGGTTTCAGTTCCGGTTAGTGCTAGGTCTTGATTCGCTTGACGCTGCTG` — result for “fitted relative affinity”: 7.47 z-score.
For `GCCTAGCACGACGGTGTCCTACTGCTGACGTGCTAGGTCTTGATTCGCTTGACGCTGCTG`, “fitted relative affinity” read -0.61 z-score.

Set 2
Target: RNA binding protein fox-1 homolog 2, RRM domain, GST-SBP tag (RBFOX2, Homo sapiens, UniProt O43251-10, residues 100-194)
Technique: RNA Bind-n-Seq
Form: RNA
Matrix: in vitro
Concentration: 365 nM
Notes: natural RNA segment, single round, ends assumed
Baseline: no-protein control
Reading: higher = stronger binding
Target sequence (chain): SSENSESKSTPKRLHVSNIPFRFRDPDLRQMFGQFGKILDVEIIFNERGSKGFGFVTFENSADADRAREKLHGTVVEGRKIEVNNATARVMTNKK
`GGGAGUUCUACAGUCCGACGAUCAUUACUUGUACGAUGAAGGAUGCCUUUAAAAAAAAAUCAAAAUAAAUUAAACUGGUAAUGUUGAAUGAUAUGAGGUGAAAUCUUUAAUUUCUGCUUUGAUGUAAGAGAGAUGGAAUUCUCGGGUGCCAA` — result for “RBNS enrichment (R)”: 1.06.
`GGGAGUUCUACAGUCCGACGAUCUGAAGUGUUUUUAAAAAUUAAAGAAGAAGAAAAGUAAAAGAGCUUACCACUGGCGCCUAUGCGAUCACUUCAUUUUUAGUUUGAGUUGCACCAGAAGCUGCCGUAGAAAGUGGAAUUCUCGGGUGCCAA` — result for “RBNS enrichment (R)”: 0.299.
`GGGAGUUCUACAGUCCGACGAUCAUAAGUGGUGCCAUUGGAAUGUCAGCAUUGCUUGAGUGUCAUGCUGAGGGAUGGUCCUGACAGUAAACAGCGGGAAGACACCGGGAGCAUUGUAAUCGCUUGGUUAAUUGUGGAAUUCUCGGGUGCCAA`: “RBNS enrichment (R)” 12.3.

Other studies, line by line
`GGGAGUUCUACAGUCCGACGAUCUAACUUUAGAGGAGGAUCUGAUGGAUAUGGCAGUGGACGUGGAUUUGGGGAUGGCUACAAUGGGUAUGGAGGAGGACCUGGAGGUGGCAAUGGAAUUCUCGGGUGUCAAGG (7-deaza-guanosine replaces G)` has a log2 enrichment of 0.00242 (Fragile X messenger ribonucleoprotein 1, C-terminal low-complexity region (Fmr1, Mus musculus, UniProt P35922); RNA Bind-n-Seq; RNA, in vitro; 200 nM, whole 134-nt RNA, ends assumed, added: 150 mM LiCl; baseline: input library, higher = stronger binding).
`PhoQ, residues 284 288 289 292 302 303 DDMDFR` has a fold induction of 1.03 (PhoP, residues 12 14 15 18 19 NQAHL (Escherichia coli, UniProt P23836); Sort-seq, measured: YFP reporter; E. coli; PhoQ-PhoP variant library, added: 10 µM Mg2+; baseline: high Mg2+ state, higher = stronger signaling).

Repeated from above (set 2):
`GGGAGUUCUACAGUCCGACGAUCAUAAGUGGUGCCAUUGGAAUGUCAGCAUUGCUUGAGUGUCAUGCUGAGGGAUGGUCCUGACAGUAAACAGCGGGAAGACACCGGGAGCAUUGUAAUCGCUUGGUUAAUUGUGGAAUUCUCGGGUGCCAA`: “RBNS enrichment (R)” 12.3.
